Assay results collected from several papers.
Values after ≈ are worked out from the molar mass of the structure shown.

N=C(N)c1ccc(OCCC(CCOc2ccc(C(=N)N)cc2)c2ccccc2)cc1 (centres unmarked)
FICI (Escherichia coli; checkerboard; mcr-3 polymyxin-resistant; unit not given, together with: rifampicin; lower = stronger synergy): ≤ 0.063

CC1=NN(c2cccc([N+](=O)[O-])c2)C(=O)C1=NNc1ccc(S(N)(=O)=O)cc1
glucose uptake (Saccharomyces cerevisiae; 50 µg/mL): 26.8%

Nc1nc(-c2ccccc2)nc2[nH]nc(Nc3ccc(C(F)(F)F)cc3)c12
clinical score (coxsackievirus B3; 31-1-93, NMRI mice, CVB3 chronic myocarditis; oral, 100 mg/kg twice daily, day 2, dosed days 0 to 6, score scale 0 to 7; direction not given): 0

CC1=NN(c2ccccn2)C(=O)C1=NNc1ccc(S(N)(=O)=O)cc1
glucose uptake (Saccharomyces cerevisiae; 200 µg/mL): 17%

Cn1cc2c3c1C(=O)C(NCCc1ccc(O)cc1)=CC3=NCC2
inhibition (Saccharomyces cerevisiae; cell growth, liquid culture; BY4741; 100 µM, 24 h): 5%

CC1=NNC(=S)NC(=O)C1/N=N/c1ccc(S(N)(=O)=O)cc1 (centres unmarked)
glucose uptake (Saccharomyces cerevisiae; 50 µg/mL): 46.9%

CN[C@H](CC(C)C)C(=O)N[C@H]1C(=O)N[C@@H](CC(N)=O)C(=O)N[C@H]2C(=O)N[C@H]3C(=O)N[C@H](C(=O)N[C@H](C(=O)O)c4cc(O)cc(O)c4-c4cc3ccc4O)[C@H](O)c3ccc(c(Cl)c3)Oc3cc2cc(c3O[C@@H]2O[C@H](CO)[C@@H](O)[C@H](O)[C@H]2O[C@H]2C[C@](C)(N)[C@H](O)[C@H](C)O2)Oc2ccc(cc2Cl)[C@H]1O
MIC50 (Staphylococcus epidermidis; methicillin-resistant, 10 isolates; serum 25%): 2 µg/mL (≈ 1.38 µM)

Cc1cc(OC(C)C)ccc1C(=O)C(C)(C)NC(=O)c1sccc1C
EC50 (Alternaria brassicicola; mycelial growth; PSA medium; 20 °C): 0.51 µg/mL (≈ 1.42 µM)

CCCCCOc1ccc(-c2ccc(-c3ccc(C(=O)N[C@H]4C[C@@H](O)[C@@H](OCC[N+](C)(C)C)NC(=O)[C@@H]5[C@@H](O)[C@@H](C)CN5C(=O)[C@H]([C@@H](C)O)NC(=O)[C@H]([C@H](O)[C@@H](O)c5ccc(O)cc5)NC(=O)[C@@H]5C[C@@H](O)CN5C(=O)[C@H]([C@@H](C)O)NC4=O)cc3)cc2)cc1
free AUC/MIC for 1 log kill (Candida glabrata; 35315, neutropenic mouse, disseminated candidiasis; dose not given, average 24 h AUC over 7 days): 1.4

CC1=NN(c2ccc(C)cc2)C(=O)C1=NNc1ccc(S(N)(=O)=O)cc1
glucose uptake (Saccharomyces cerevisiae; 50 µg/mL): 56.6%

OC(Cn1cncn1)(Cn1cncn1)c1ccc(F)cc1F
MIC (Candidozyma auris; inhibitor; 276; 24 h): 128 µg/mL (≈ 418 µM)

COC(=O)[C@H](Cc1ccc(O)cc1)NCc1cc2ccccc2nc1SC
growth (Pseudomonas aeruginosa; 64 µg/mL, together with: pentamidine 50 µM; reference: control): 83.4%

CC(=O)NC[C@H]1CN(c2ccc(N3CCOCC3)c(F)c2)C(=O)O1
MIC50 (Streptococcus pyogenes; 10 isolates; serum 0%): 0.5 µg/mL (≈ 1.48 µM)

CC1=NOC(=O)C1=NNc1ccc(S(N)(=O)=O)cc1
glucose uptake (Saccharomyces cerevisiae; 500 µg/mL): 29%

CC1(C)S[C@@H]2[C@H](NC(=O)Cc3ccccc3)C(=O)N2[C@H]1C(=O)O
MIC (Neisseria gonorrhoeae; broth microdilution; WHO P; 1.5 h): 64 µg/mL (≈ 191 µM)

CC(C)[C@@H]1NC(=O)[C@@H](CCN)NC(=O)[C@H]([C@@H](C)O)NC(=O)[C@@H](CCCN)NC(=O)[C@H](Cc2ccccc2)NC(=O)[C@@H](Cc2ccccc2)NC1=O
IC90 (Naegleria fowleri; trophozoites): > 16 µg/mL

Cc1c(CN(C)C(=O)/C=C/c2cnc3c(c2)CCC(=O)N3)oc2ccccc12
MIC (Escherichia coli; broth microdilution; AR-0559): 32 µg/mL (≈ 85.2 µM)
